# Assay results from different studies.
# Numbered parts are unrelated; each lists some results of a single study. “And” joins repeats or separate records; there may be more than shown.
# UniProt Q00535, sequence (whole entry, looked up): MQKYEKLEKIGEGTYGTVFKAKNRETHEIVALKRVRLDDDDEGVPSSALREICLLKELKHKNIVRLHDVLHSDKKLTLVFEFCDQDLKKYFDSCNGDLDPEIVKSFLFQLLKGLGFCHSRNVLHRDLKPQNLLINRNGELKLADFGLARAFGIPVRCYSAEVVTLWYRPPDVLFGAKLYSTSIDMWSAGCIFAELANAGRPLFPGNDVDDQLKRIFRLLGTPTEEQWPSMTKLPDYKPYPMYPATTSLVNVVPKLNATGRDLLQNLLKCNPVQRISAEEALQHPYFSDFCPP
# UniProt P11802, sequence (whole entry, looked up): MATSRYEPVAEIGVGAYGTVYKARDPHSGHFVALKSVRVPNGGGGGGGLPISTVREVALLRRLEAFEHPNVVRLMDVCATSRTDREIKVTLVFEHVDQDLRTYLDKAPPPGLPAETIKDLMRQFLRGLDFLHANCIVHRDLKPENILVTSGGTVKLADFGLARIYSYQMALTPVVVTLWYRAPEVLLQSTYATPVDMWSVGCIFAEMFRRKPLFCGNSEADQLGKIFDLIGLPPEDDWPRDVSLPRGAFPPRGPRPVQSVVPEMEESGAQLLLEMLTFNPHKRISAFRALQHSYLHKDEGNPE
# UniProt O14920, sequence (whole entry, looked up): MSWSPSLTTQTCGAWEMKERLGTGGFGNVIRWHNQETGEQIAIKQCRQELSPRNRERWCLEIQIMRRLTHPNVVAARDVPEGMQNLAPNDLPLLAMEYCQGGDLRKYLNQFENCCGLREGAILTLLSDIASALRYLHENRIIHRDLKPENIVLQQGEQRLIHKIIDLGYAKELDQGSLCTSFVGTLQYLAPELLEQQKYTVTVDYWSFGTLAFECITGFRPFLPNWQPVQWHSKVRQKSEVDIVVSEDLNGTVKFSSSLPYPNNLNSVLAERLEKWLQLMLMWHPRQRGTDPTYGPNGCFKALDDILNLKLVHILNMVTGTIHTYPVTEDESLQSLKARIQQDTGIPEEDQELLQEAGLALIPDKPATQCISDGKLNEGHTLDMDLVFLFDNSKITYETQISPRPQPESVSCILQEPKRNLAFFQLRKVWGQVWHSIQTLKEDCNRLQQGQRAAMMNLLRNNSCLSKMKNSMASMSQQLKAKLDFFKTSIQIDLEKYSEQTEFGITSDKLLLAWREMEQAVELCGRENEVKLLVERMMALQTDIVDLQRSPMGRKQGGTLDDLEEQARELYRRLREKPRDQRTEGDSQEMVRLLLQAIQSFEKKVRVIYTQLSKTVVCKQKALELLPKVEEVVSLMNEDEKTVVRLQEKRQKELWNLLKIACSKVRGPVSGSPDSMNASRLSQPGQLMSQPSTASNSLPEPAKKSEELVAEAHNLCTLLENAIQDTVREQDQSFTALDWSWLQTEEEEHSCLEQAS
# UniProt P54646, sequence (whole entry, looked up): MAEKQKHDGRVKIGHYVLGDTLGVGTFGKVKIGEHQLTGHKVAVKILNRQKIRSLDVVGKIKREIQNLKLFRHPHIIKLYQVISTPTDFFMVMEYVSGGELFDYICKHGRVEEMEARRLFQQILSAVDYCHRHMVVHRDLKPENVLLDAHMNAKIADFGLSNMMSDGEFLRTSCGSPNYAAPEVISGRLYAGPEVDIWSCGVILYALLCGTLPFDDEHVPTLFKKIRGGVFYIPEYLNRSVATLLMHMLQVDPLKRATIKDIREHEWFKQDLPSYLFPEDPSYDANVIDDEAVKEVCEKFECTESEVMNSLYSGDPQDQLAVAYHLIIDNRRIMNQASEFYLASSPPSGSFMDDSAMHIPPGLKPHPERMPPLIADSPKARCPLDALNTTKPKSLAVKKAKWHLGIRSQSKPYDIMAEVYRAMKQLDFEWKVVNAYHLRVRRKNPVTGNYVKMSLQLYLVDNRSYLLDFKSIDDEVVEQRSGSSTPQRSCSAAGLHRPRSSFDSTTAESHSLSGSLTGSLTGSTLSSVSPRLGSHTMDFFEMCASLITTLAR
# UniProt Q8NEB9, sequence (whole entry, looked up): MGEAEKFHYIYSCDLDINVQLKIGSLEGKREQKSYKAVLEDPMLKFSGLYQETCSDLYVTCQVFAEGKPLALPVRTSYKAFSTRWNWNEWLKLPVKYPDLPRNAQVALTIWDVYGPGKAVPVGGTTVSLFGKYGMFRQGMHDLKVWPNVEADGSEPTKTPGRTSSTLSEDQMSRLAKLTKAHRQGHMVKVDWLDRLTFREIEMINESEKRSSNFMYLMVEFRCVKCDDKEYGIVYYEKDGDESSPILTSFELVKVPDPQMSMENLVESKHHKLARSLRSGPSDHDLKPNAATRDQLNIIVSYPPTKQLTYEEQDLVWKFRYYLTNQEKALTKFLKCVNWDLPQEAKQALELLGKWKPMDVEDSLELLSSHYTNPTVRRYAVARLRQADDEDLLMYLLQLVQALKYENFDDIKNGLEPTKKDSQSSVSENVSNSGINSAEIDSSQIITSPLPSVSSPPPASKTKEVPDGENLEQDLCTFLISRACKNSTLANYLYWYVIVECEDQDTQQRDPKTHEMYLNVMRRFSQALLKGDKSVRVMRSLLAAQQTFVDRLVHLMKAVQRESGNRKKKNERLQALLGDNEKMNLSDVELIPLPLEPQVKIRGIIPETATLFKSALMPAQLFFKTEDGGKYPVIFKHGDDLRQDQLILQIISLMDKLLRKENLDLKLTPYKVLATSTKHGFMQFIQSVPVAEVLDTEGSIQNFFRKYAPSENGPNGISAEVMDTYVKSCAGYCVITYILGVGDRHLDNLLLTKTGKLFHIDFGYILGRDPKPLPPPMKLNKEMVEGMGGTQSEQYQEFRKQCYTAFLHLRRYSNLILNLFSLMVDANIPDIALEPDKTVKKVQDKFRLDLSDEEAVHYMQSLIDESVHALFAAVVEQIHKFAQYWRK
# UniProt Q13557, sequence (whole entry, looked up): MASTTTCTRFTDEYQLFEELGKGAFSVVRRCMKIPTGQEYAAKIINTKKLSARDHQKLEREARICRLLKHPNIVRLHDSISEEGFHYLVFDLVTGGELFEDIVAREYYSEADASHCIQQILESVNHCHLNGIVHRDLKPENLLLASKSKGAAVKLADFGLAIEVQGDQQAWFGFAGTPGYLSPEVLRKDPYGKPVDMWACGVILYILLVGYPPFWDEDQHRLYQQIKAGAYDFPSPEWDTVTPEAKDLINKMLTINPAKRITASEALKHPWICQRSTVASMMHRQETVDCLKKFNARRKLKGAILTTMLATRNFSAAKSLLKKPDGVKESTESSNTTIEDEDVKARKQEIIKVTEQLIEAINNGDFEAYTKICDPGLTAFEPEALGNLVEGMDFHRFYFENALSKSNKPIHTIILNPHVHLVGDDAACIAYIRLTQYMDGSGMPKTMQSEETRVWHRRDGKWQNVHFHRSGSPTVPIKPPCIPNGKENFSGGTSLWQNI
# UniProt P36897, sequence (whole entry, looked up): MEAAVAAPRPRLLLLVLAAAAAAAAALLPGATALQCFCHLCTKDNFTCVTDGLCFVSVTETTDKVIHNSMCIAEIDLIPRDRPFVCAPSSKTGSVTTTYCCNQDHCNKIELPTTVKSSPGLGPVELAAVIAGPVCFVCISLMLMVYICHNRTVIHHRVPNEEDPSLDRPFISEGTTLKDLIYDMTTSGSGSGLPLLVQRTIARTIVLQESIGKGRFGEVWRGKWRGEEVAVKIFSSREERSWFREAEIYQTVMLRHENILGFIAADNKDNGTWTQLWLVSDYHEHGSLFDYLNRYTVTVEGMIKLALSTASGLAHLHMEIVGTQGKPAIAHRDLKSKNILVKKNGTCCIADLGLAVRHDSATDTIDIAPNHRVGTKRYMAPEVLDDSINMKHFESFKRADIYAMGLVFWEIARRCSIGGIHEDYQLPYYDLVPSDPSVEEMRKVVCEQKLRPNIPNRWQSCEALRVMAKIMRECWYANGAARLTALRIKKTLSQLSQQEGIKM
# UniProt Q96PN8, sequence (whole entry, looked up): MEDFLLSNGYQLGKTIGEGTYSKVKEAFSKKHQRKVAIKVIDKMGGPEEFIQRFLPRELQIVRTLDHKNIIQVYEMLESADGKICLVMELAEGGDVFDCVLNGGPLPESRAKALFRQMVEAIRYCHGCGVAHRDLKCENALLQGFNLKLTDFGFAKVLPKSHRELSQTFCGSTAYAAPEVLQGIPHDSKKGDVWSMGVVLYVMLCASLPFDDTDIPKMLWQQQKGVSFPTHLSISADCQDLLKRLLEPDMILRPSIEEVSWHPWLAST
# UniProt P37173, sequence (whole entry, looked up): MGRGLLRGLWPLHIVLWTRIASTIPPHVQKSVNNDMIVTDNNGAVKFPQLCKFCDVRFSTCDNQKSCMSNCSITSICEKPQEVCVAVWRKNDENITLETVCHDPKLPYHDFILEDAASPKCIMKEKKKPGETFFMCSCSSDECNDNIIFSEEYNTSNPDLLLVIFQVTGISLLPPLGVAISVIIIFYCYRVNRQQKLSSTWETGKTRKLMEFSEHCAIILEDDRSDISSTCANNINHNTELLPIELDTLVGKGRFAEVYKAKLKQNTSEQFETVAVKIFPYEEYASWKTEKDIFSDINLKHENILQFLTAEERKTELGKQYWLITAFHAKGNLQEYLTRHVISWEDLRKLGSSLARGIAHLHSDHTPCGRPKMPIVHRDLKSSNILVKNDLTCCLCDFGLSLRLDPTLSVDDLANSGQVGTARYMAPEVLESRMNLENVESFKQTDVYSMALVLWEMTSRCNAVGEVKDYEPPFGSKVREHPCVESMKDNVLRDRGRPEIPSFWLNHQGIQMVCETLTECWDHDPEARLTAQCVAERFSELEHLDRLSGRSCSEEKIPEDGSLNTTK
# UniProt Q9UIK4, sequence (whole entry, looked up): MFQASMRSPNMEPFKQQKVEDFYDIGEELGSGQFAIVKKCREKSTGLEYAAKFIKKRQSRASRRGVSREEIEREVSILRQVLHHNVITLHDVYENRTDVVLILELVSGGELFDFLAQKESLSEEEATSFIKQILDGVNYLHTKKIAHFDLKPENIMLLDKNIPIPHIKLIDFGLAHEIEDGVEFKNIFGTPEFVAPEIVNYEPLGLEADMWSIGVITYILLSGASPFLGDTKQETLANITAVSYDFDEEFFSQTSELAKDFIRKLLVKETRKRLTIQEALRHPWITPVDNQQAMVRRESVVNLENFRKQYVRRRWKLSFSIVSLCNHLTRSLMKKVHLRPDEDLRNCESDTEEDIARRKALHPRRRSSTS

# Block 1
# Cell line: mouse MPNST tumor cells
# Method: high-content nuclear imaging
# Item: cell number
# Concentration: 10 µM
# Time: 12 h
# Setting: mean of 2 replicates
# Reference: plate mean
# Direction: higher = more cells
SMILES,nuclei count
CC(=O)O[C@H]1C(=O)[C@@]2(C)[C@H]([C@H](OC(=O)c3ccccc3)[C@]3(O)C[C@H](OC(=O)[C@H](O)[C@@H](NC(=O)c4ccccc4)c4ccccc4)C(C)=C1C3(C)C)[C@]1(OC(C)=O)CO[C@@H]1C[C@@H]2O,-5.55 z-score and -3.87 z-score
NC(=O)n1c(O)c(C(=O)c2cccs2)c2cc(Cl)ccc21,-0.979 z-score
CC(=O)S[C@@H]1CC2=CC(=O)CC[C@]2(C)[C@H]2CC[C@@]3(C)[C@@H](CC[C@@]34CCC(=O)O4)[C@H]12,1.31 z-score and -0.495 z-score and 0.0241 z-score
Cc1cc(N2CCOCC2)cc2[nH]c(-c3c(NCC(O)c4cccc(Cl)c4)cc[nH]c3=O)nc12 (stereo not drawn),-1.45 z-score
Cn1c(=O)c2cc(C(=O)NCCCN3CCCCCC3)sc2c2ccccc21,1.78 z-score
COC1C(O)CC(=O)OC(C)CC=CC=CC(OC2CCC(N(C)C)C(C)O2)C(C)CC(CC=O)C1OC1OC(C)C(OC2CC(C)(O)C(O)C(C)O2)C(N(C)C)C1O (stereo not drawn),3.65 z-score

# Block 2
# SMILES: CC(C)(C(=O)O)[C@H](NC(=O)Cc1cccc(I)c1)c1ccc2oc(=O)[nH]c2c1
# Method: Incucyte 3D growth
# Concentration: 30 µM
# Direction: higher = more growth
cell line,setting,spheroid area
KP-4,222 h,3.96e+07 a.u. and 1.99e+07 a.u. and 3.86e+07 a.u. and 4.24e+07 a.u. and 4.17e+07 a.u. and 6.55e+07 a.u.
MEL-JUSO,456.52 h,5.42e+07 a.u. and 2.8e+07 a.u. and 2.62e+07 a.u. and 2.78e+07 a.u. and 7.46e+07 a.u. and 3.78e+07 a.u.
MEL-JUSO,210.52 h,1.59e+07 a.u. and 1.65e+07 a.u. and 1.8e+07 a.u. and 2.45e+07 a.u. and 2.06e+07 a.u. and 1.53e+07 a.u.
NCI-H1437,78 h,3.15e+07 a.u. and 2.95e+07 a.u. and 2.42e+07 a.u. and 2.56e+07 a.u. and 2.97e+07 a.u.

# Block 3
# Compound: CC(C)(C)c1cnc(CSc2cnc(NC(=O)C3CCN(CCCCCSc4cccc5c4CN(C4CCC(=O)NC4=O)C5=O)CC3)s2)o1 (stereo not drawn)
# Host: NSG mouse, HuT78 xenograft
# Dose: dose not given
setting,tumour volume
"subcutaneous, day 10",103 mm³ and 39.8 mm³ and 92.6 mm³ and 62.5 mm³ and 32 mm³
"intraperitoneal, day 12",0 mm³ and 94.2 mm³ and 75.4 mm³
"subcutaneous, day 16",583 mm³ and 228 mm³ and 296 mm³ and 351 mm³ and 517 mm³
"subcutaneous, day 12",399 mm³ and 119 mm³ and 45.6 mm³ and 187 mm³ and 62.5 mm³

# Block 4
# Host: mouse
# Medium: microsomes or S9
# Concentration: 2 µM
# Time: 0.5 h
SMILES,remaining compound [%]
O=c1ccc2cnc(Nc3cnn(C4CCNCC4)c3)nc2n1C1CCCCCC1,21.6
COc1cccc2c1CCC(=O)N2CCCN1CCC(c2ccccc2)CC1,7.2
Clc1ccc(OCc2nnc(-c3cccnc3)[nH]2)cc1,31
Cc1ccnn1CCNC(=O)CCc1nc2ncc(Br)cc2[nH]1,64.2
Cc1ccc(C(=O)c2[nH]c3ccccc3c2CC(=O)O)cc1,52.9
CSc1nnc(CNC(=O)OC(C)(C)C)n1-c1ccccc1,9.03

# Block 5
# SMILES: CCC(=O)N[C@H]1CC[C@@H](C(=O)N(C)c2ccc(-c3nc4ccccc4o3)cc2)C1
# Observed: cell-free assay
# Method: competition with immobilised ligand
# Concentration: 1 µM
target,remaining binding
"PRKAA2 (Homo sapiens, UniProt P54646)",88%
"MYLK (Homo sapiens, UniProt Q15746)",69%
"KIT (Homo sapiens, UniProt P10721, D816H)",85%
"CSNK1G3 (Homo sapiens, UniProt Q9Y6M4)",99%
"TSSK3 (Homo sapiens, UniProt Q96PN8)",100%
"PIK3C3 (Homo sapiens, UniProt Q8NEB9)",89%

# Block 6
# SMILES: c1ccc(-c2n[nH]c3c2oc2ccccc23)cc1
# Observed: enzyme activity
# Mode: inhibitor
# Concentration: 0.5 µM
# Reference: control
target,remaining activity [%]
"CAMK2D (Homo sapiens, UniProt Q13557)",94.5
"STK10 (Homo sapiens, UniProt O94804)",108
"CHEK2 (Homo sapiens, UniProt O96017)",101
"cGMP-dependent protein kinase 1, isoform beta (PRKG1, Homo sapiens, UniProt Q13976)",103
"DAPK2 (Homo sapiens, UniProt Q9UIK4)",71.2
"IKBKB (Homo sapiens, UniProt O14920)",92.2
"GRK3 (Homo sapiens, UniProt P35626)",119
"Tyrosine-protein kinase Lyn, isoform B (LYN, Homo sapiens, UniProt P07948)",102
"OXSR1 (Homo sapiens, UniProt O95747)",101
"Cyclin-dependent kinase 4, with cyclin D1 (CDK4, Homo sapiens, UniProt P11802)",87.9
"MAP3K3 (Homo sapiens, UniProt Q99759)",94.7
"NEK2 (Homo sapiens, UniProt P51955)",99.8
"Protein kinase C beta type, isoform beta-I (PRKCB, Homo sapiens, UniProt P05771)",103
"DAPK1 (Homo sapiens, UniProt P53355)",71
"PRKCA (Homo sapiens, UniProt P17252)",92.9
"MAPK9 (Homo sapiens, UniProt P45984)",96.5
"TGFBR1 (Homo sapiens, UniProt P36897)",94.9
"STK39 (Homo sapiens, UniProt Q9UEW8)",120
"Cyclin-dependent kinase 5, with p25 (CDK5, Homo sapiens, UniProt Q00535)",99
"STK11 (Homo sapiens, UniProt Q15831)",107
"TGFBR2 (Homo sapiens, UniProt P37173)",94.1
"PRKACA (Homo sapiens, UniProt P17612)",97.5
"IKBKE (Homo sapiens, UniProt Q14164)",101
"CAMKK2 (Homo sapiens, UniProt Q96RR4)",87.5

# Other studies, line by line
Compound,system,setting,measurement,result
CC(C)n1cnc(-c2ccc(F)cc2)c1-c1ncc(C(=O)Nc2ccc(N3CCN(C)CC3)cc2)[nH]1,"human, idiopathic pulmonary fibrosis","30 mg once daily, trial, treatment-emergent",patients with Weight increased,0%

# A few entries again (block 6):
target,remaining activity [%]
"STK39 (Homo sapiens, UniProt Q9UEW8)",120
"Cyclin-dependent kinase 5, with p25 (CDK5, Homo sapiens, UniProt Q00535)",99
"STK11 (Homo sapiens, UniProt Q15831)",107
"TGFBR2 (Homo sapiens, UniProt P37173)",94.1
